Assay results gathered from unrelated publications.
Numbers after ± are the reported error.
ABCG2: Broad substrate specificity ATP-binding cassette transporter ABCG2 (ABCG2, Homo sapiens, UniProt Q9UNQ0)
UniProt Q9UNQ0, sequence (whole entry, looked up): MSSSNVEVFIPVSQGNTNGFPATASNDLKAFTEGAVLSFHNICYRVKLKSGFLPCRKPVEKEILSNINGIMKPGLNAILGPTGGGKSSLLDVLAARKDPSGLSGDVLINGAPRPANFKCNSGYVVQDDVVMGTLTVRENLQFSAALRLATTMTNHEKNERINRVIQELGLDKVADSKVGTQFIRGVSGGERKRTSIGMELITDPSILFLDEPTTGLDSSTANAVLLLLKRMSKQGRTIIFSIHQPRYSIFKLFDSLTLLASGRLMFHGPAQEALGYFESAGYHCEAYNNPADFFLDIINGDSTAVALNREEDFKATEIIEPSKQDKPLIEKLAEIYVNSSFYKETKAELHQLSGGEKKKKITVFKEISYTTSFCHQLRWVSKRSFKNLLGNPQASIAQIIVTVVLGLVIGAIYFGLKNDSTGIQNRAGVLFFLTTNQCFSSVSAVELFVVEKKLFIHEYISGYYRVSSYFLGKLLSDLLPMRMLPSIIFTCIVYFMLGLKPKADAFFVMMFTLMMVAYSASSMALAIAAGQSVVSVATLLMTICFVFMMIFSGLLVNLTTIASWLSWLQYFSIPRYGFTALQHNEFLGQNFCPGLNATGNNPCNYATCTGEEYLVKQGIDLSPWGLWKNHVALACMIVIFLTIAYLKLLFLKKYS
UniProt Q05655, sequence (whole entry, looked up): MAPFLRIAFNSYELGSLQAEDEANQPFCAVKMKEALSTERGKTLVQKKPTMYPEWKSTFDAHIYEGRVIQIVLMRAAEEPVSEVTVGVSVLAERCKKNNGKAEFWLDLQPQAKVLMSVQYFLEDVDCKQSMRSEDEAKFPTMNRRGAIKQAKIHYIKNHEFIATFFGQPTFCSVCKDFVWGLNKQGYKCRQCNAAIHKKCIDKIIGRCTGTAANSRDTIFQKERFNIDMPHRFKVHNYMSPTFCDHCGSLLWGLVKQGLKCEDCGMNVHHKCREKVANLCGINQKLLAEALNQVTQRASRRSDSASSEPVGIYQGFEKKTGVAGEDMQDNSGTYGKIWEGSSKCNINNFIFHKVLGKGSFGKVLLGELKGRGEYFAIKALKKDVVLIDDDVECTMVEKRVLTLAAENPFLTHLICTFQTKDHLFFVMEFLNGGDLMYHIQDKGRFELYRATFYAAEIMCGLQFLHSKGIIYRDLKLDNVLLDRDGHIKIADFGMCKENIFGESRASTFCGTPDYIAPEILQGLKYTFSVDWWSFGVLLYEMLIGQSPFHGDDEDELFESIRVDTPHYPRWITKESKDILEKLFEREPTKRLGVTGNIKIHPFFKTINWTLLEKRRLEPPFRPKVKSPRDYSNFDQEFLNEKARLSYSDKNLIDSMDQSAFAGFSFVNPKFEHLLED
UniProt Q86VL8, sequence (whole entry, looked up): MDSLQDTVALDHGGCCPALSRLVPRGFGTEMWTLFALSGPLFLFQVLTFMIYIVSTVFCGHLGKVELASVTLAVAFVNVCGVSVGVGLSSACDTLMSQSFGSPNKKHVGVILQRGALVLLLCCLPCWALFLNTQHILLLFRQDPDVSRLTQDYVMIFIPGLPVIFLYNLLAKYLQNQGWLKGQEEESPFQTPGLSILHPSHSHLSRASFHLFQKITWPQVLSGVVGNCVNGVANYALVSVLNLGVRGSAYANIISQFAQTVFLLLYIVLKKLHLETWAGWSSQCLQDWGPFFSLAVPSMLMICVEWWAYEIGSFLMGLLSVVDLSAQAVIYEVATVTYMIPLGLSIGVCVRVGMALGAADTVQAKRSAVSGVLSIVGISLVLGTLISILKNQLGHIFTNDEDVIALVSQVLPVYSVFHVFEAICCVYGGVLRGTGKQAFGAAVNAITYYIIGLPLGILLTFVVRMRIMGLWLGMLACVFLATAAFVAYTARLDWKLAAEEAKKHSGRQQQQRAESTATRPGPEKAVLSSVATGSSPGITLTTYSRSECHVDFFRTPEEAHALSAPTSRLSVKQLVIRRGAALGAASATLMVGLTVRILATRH

SMILES | tested on | test | system | setting | scale | quantity | result
CO[C@H]1C[C@@H]2CC[C@@H](C)[C@@](O)(O2)C(=O)C(=O)N2CCCC[C@H]2C(=O)O[C@H]([C@H](C)C[C@@H]2CC[C@@H](OC(=O)NCCOCCOCCOCCOCCOCCOCCOCCOCCC(=O)N3CCc4cc(Cn5nc(-c6ccc7oc(N)nc7c6)c6c(N)ncnc65)ccc4C3)[C@H](OC)C2)C[C@@H](O)[C@H](C)/C=C(\C)[C@@H](O)[C@@H](OC)C(=O)[C@H](C)C[C@H](C)/C=C/C=C/C=C/1C | – | phase 1 dose escalation | advanced solid tumour patients | intravenous, 10 mg weekly, grade ≥3 | – | deaths due to TEAEs | 0%
CC(C)C[C@@H](NC(=O)[C@H](N)CCCCN)C(=O)N[C@@H](C(=O)N[C@H](Cc1ccccc1)C(=O)N[C@H](Cc1ccccc1)C(N)=O)C(C)C | NGF-differentiated PC-12 neurons | – | – | 20 µM, 24 h | reference: untreated | viability | 100%
CCCCN(C)CCCNC(=O)c1ccc2nc(N3CCCCC3)sc2c1 | Vero-E6 | CellTiter-Glo ATP | – | 72 h, second round 5-point | reference: DMSO 0%, hyamine -100%, more negative, more toxic | maximum response | -8.88%
CCC(CC)COC(=O)[C@H](C)N[P@](=O)(OC[C@H]1O[C@@](C#N)(c2ccc3c(N)ncnn23)[C@H](O)[C@@H]1O)Oc1ccccc1 | – | – | healthy human | intravenous, 100 mg | – | participants with adverse events | 22%
CC(C)C[C@@H](N)C(=O)N1CCC[C@@H]1C(=O)N[C@H](Cc1ccccc1)C(=O)N[C@H](Cc1ccccc1)C(=O)N[C@H](C)C(N)=O | NGF-differentiated PC-12 neurons | – | – | 20 µM, 24 h | reference: untreated | viability | 100%
C[C@]1(CO)Cc2ncn(-c3ccc(C#N)c(Cl)c3)c2C(=O)O1 | – | – | human, plasma | 40 mg single dose, geometric mean | – | half-life | 5.2 h
COCCCNC(=O)C1CCN(Cc2cc3ccccc3n2Cc2cccc(Cl)c2)CC1 | Vero-E6 | CellTiter-Glo ATP | – | 72 h, retest 8-point duplicates | reference: DMSO 0%, hyamine -100%, more negative, more toxic | maximum response | -9.06%
Cc1oncc1C(=O)Nc1ccc(C(F)(F)F)cc1 | Multidrug and toxin extrusion protein 2 (SLC47A2, Homo sapiens, UniProt Q86VL8) | transport, inhibitor | transiently transfected cells | 100 µM, 10 (unit not given), with: thiamine | – | inhibition | 40.1%
CNC(=O)c1c(C)oc2cc(Oc3ccnc4cc(OCCN5CCOCC5)ccc34)ccc12 | – | – | patients | dose not given, dose cohorts | reference: once daily versus twice daily | haemoglobin level | no effect
COc1cccc(CNC(=O)C2CCN(Cc3cc4ccccc4n3Cc3ccccc3)CC2)c1OC | Vero-E6 | CellTiter-Glo ATP | – | concentration not given, 72 h, retest 8-point duplicates | reference: DMSO 0%, hyamine -100%, more negative, more toxic | cytotoxicity efficacy | 0%
COc1cc2c(c(OC)c1OC)-c1ccc(OC)c(=O)cc1[C@@H](NC(C)=O)CC2 | ABCG2 | transport, inhibitor | – | 100 µM, 5 (unit not given), pH 7, with: CCK-8 | – | inhibition | 23.8%
Cc1ccc(Nc2ccnc(N3CCC(C(=O)NCCCc4ccccc4)CC3)n2)cc1 | Vero-E6 | CellTiter-Glo ATP | – | 72 h, retest 8-point duplicates | reference: DMSO 0%, hyamine -100%, more negative, more toxic | maximum response | -28.1%
CCCC(C(=O)c1ccc2c(c1)OCO2)N1CCCC1.Cl (racemic) | – | – | rat, brain over plasma | sc, 4 mg/kg, 240 min | – | Kp | 9.4 ± 1.3
C[C@@H](O)[C@@H](CO)NC(=O)[C@@H](CCCNC(=N)N)NC(=O)[C@@H]1CCCN1C(=O)[C@@H]1CSSC[C@H](NC(=O)[C@H](Cc2ccccc2)NC(=O)CN2CCN(CC(=O)O)CCN(CC(=O)O)CCN(CC(=O)O)CC2)C(=O)N[C@@H](Cc2ccc(O)cc2)C(=O)N[C@@H](Cc2ccccc2)C(=O)N[C@@H](CCC(N)=O)C(=O)N[C@@H](CC(N)=O)C(=O)N1 [gallium-68 labelled] | – | – | healthy Wistar rat, thyroid | intravenous, 8 MBq, 60 min, individual animals | – | tissue uptake | 0.13 %ID/g
CCCC(C(=O)c1ccc(O)c(OC)c1)N1CCCC1 (stereo not drawn) | – | LC-MS/MS | rat, trunk blood plasma | subcutaneous, 2 mg/kg MDPV, 40 min | – | plasma concentration | 50 ± 5.9 ng/mL
Cc1ccc2nc(C3CCCN(Cc4cccc(-c5cccnc5)c4)C3)[nH]c(=O)c2c1 (stereo not drawn) | Vero-E6 | CellTiter-Glo ATP | – | 72 h, second round 5-point | reference: DMSO 0%, hyamine -100%, more negative, more toxic | maximum response | -1.41%
CN1CC[C@@H](c2c(O)cc(O)c3c(=O)cc(-c4ccc(C(F)(F)F)cc4Cl)oc23)[C@@H]1CO | – | refers to: grade 3 urinary incontinence | relapsed or refractory haematologic malignancy patients | oral, dose not given, phase dose escalation, all doses | – | patients with adverse event | 5%
CC(=O)c1c(C)c2cnc(Nc3ccc(C4CCN(CCS(C)(=O)=O)CC4)cn3)nc2n(C2CCCC2)c1=O | – | – | beagle dog, female, fasted, blood | oral gavage, 15 mg/kg, acidified methylcellulose vehicle | – | Cmax | 345 ng/mL

SMILES | tested on | test | system | setting | scale | quantity | result
COc1cc2c(Oc3ccc4[nH]c(C)cc4c3F)ccnc2cc1OCC1(N)CC1 | – | – | paediatric recurrent refractory sarcoma | 12 mg | – | grade 1 or 2 Hypertension | 9.1%
CC(=O)N1CCC(C(=O)N2CCN3C(=O)c4cc(-c5ccccc5)ccc4NC(=O)C3C2)CC1 (stereo not drawn) | Salmonella typhimurium | – | TA1535 | 158 µg/plate | – | revertants per plate | 25
O=C(NCCCN1CCCCCC1)c1ccc2c(c1)sc1nc(-c3ccccc3)cn12 | Vero-E6 | CellTiter-Glo ATP | – | concentration not given, 72 h, retest 8-point duplicates | reference: DMSO 0%, hyamine -100%, more negative, more toxic | cytotoxicity efficacy | -30.2%
CCCCCCCCc1ccc(CCC(N)(CO)CO)cc1 | ABCG2 | transport, inhibitor | – | 100 µM, 5 (unit not given), pH 7, with: CCK-8 | – | inhibition | -21.5%
COc1cc(Nc2ncc(F)c(Nc3ccc4c(n3)NC(=O)C(C)(C)O4)n2)cc(OC)c1OC | Cathepsin B (CTSB, Homo sapiens, UniProt P07858) | – | – | – | – | IC50 | > 10 µM
C[C@H]1CN(c2n[nH]c3nc(N[C@H]4CC[C@H](NS(=O)(=O)CCC(F)(F)F)CC4)ncc23)CCO1 | Protein kinase C delta type (PRKCD, Homo sapiens, UniProt Q05655) | inhibitor, Kinobeads competition profiling | – | 0.8 µM | reference: vehicle | relative abundance | 1.06
COc1cccc(-c2n[nH]c(SCc3ccccn3)n2)c1OC | Salmonella typhimurium | Ames test, preincubation | TA1537 | 0.13 mg/plate, without S9 | – | revertant colonies per plate | 6
O=C1c2c(O)c(=O)ccn2N([C@@H]2c3ccccc3SCc3c2ccc(F)c3F)[C@@H]2COCCN12 | – | – | BALB/c mouse | subcutaneous, 2 mg/kg q12h | – | trough concentration | 14.5 ng/mL
CC[C@H](C)[C@@H]1NC(=O)[C@@H]2CCCN2C(=O)[C@H](CC(C)C)NC(=O)[C@H](CC(C)C)NC(=O)CNC(=O)[C@@H](NC(=O)[C@@H](NC(=O)[C@H](CC(=O)O)NC(=O)CNC(=O)[C@@H](NC(=O)[C@H](C)NC(=O)CNC(=O)[C@H](CCCCN)NC(=O)[C@H](CC(C)C)NC(=O)[C@H](CC(C)C)NC(=O)[C@H](CCCCN)NC(=O)CNC(=O)[C@@H](NC(=O)[C@@H](N)CC(C)C)C(C)C)C(C)C)C(C)C)CSSC[C@@H](C(=O)O)NC1=O | – | RNA-seq, refers to: Igfbpl1 | mouse, traumatic brain injury model, frontal cortex and hippocampus | dose not given | reference: TBI alone | log2 fold change | -2.17
O=c1ccc2ccccc2o1 | HepG2 | refers to: glutathione content | – | concentration not given, 24 h, ATP, GSH, MMP, ROS panel | – | probability of response | 91.9%
C[C@H]1CN(N=O)CCc2ccc(Cl)cc21 | TK6 | – | – | 1.25 µM, 4 h, with: hamster liver S9 | reference: vehicle | relative survival | 99.6%
CCCCSCCCNC(=O)C1CCN(Cc2nc(-c3ccc(CC)cc3)oc2C)CC1 | Vero-E6 | CellTiter-Glo ATP | – | 72 h, second round 5-point | reference: DMSO 0%, hyamine -100%, more negative, more toxic | maximum response | -5.22%
[Cl-].[Cl-].[Pt+2].[Ru+2].c1ccc(-c2nc3ccccc3nc2-c2ccccn2)nc1.c1cnc2c(c1)ccc1cccnc12.c1cnc2c(c1)ccc1cccnc12 | Danio rerio | – | embryos | 30 µM, 48 h | – | survival rate | 83.3 ± 3.4%
CN(CCC(Oc1ccc(C(F)(F)F)cc1)c1ccccc1)N=O (stereo not drawn) | TK6 | – | – | 20 h, 4 h, with: liver S9 | – | micronucleus induction | positive
CN/C(=N\[N+](=O)[O-])NCc1cnc(Cl)s1 | – | – | soil | 0.12 nominal, 28 days, Folsomia candida soil test | – | recovery | 42%
Cc1c(Cl)cccc1-c1ccc(CNCCSc2nnnn2-c2ccccc2)o1 | Vero-E6 | CellTiter-Glo ATP | – | 72 h, first round 5-point | reference: DMSO 0%, hyamine -100%, more negative, more toxic | maximum response | -1.63%
COc1cc2nc(N3CCN(C(=O)c4ccco4)CC3)nc(N)c2cc1OC | ABCG2 | transport, inhibitor | – | 100 µM, 5 (unit not given), pH 7, with: CCK-8 | – | inhibition | 31.1%
CC[C@H](C)[C@H](NC(=O)[C@H](Cc1ccccc1)NC(=O)[C@H](CCC(=O)O)NC(=O)[C@H](CCCNC(=N)N)NC(=O)[C@H](C)NC(=O)[C@H](C)NC(=O)[C@H](CCC(N)=O)NC(=O)[C@H](CCC(=O)O)NC(=O)[C@H](CCC(=O)O)NC(=O)[C@H](CC(C)C)NC(=O)[C@H](Cc1ccc(O)cc1)NC(=O)[C@H](CO)NC(=O)[C@H](CO)NC(=O)[C@@H](NC(=O)[C@H](CC(=O)O)NC(=O)[C@H](CO)NC(=O)[C@@H](NC(=O)[C@H](Cc1ccccc1)NC(=O)[C@@H](NC(=O)CNC(=O)[C@H](CCC(=O)O)NC(=O)[C@H](C)NC(=O)CCc1c[nH]cn1)[C@@H](C)O)[C@@H](C)O)C(C)C)C(=O)N[C@@H](C)C(=O)N[C@@H](Cc1c[nH]c2ccccc12)C(=O)N[C@@H](CC(C)C)C(=O)N[C@H](C(=O)N[C@@H](CCCNC(=N)N)C(=O)NCC(=O)N[C@@H](CCCNC(=N)N)C(=O)N[C@@H](CCCCNC(=O)COCCOCCNC(=O)COCCOCCNC(=O)CC[C@H](NC(=O)CCCCCCCCCCCCCCCCC(=O)O)C(=O)O)C(=O)NCC(=O)NCC(=O)N[C@@H](CO)C(=O)N[C@@H](CCCCNc1c(NCCCCCN(O)C(=O)CCC(=O)NCCCCCN(O)C(=O)CCC(=O)NCCCCCN(O)C(C)=O)c(=O)c1=O)C(=O)O)C(C)C [zirconium-89 labelled] | – | – | rat, kidney | iv, 3 nmol/kg, 24 h, ex vivo | – | tissue uptake | 8.27 %ID/g

Repeated from above:
SMILES | tested on | test | system | setting | scale | quantity | result
[Cl-].[Cl-].[Pt+2].[Ru+2].c1ccc(-c2nc3ccccc3nc2-c2ccccn2)nc1.c1cnc2c(c1)ccc1cccnc12.c1cnc2c(c1)ccc1cccnc12 | Danio rerio | – | embryos | 30 µM, 48 h | – | survival rate | 83.3 ± 3.4%
CN(CCC(Oc1ccc(C(F)(F)F)cc1)c1ccccc1)N=O (stereo not drawn) | TK6 | – | – | 20 h, 4 h, with: liver S9 | – | micronucleus induction | positive
CN/C(=N\[N+](=O)[O-])NCc1cnc(Cl)s1 | – | – | soil | 0.12 nominal, 28 days, Folsomia candida soil test | – | recovery | 42%
Cc1c(Cl)cccc1-c1ccc(CNCCSc2nnnn2-c2ccccc2)o1 | Vero-E6 | CellTiter-Glo ATP | – | 72 h, first round 5-point | reference: DMSO 0%, hyamine -100%, more negative, more toxic | maximum response | -1.63%
